{"data": "Measured values gathered from unrelated publications", "note": "Parts stem from different laboratories: compare values within a part only."}
{"data": "Study 1", "target": "RNA binding protein fox-1 homolog 2, RRM domain, GST-SBP tag (RBFOX2, Homo sapiens, UniProt O43251-10, residues 100-194)", "method": "RNA Bind-n-Seq", "molecule type": "RNA", "sample": "in vitro", "concentration": "365 nM", "notes": "natural RNA segment, single round, ends assumed", "reference": "no-protein control", "reading": "higher = stronger binding", "constant ends, left off below": "GGGAGUUCUACAGUCCGACGAUC … UGGAAUUCUCGGGUGCCAA", "Construct (chain)": "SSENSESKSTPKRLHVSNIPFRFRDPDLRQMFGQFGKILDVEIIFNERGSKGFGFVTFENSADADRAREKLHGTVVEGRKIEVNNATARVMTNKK"}
{"Strand": "AAGUGACCAUUUGGAUGUCUGGGCCCUGCCAAGGCGACAGGGAGGGUCAGAGGGAGGCCGGCUGCUUCCUGCCCCCACCCUUUCCCCGGGCCUGCUGUGCUGCUUUUGUG", "RBNS enrichment (R)": 0.453}
{"Strand": "UGGGCCCGAGGCUAUGGAGCCUUGGCUUUCACUUCUGUGACAAACACAUGCCAUUUCCCCAGCCUCAUUUGCUGGUGUCUGUAGGGUCCUCCCAAGGUGAGCUGAGGGCU", "RBNS enrichment (R)": 0.52}
{"Strand": "AUGCAUGAGGCCAAGAAACUAGCCAAGCUUCCCUUUAGGGGCAUUUGAGCUCUGGGGAGAAAGGAUAUGAGGAGUCUACACUGACCUUCCACUUCUUUUUUCACCCAGUU", "RBNS enrichment (R)": 28}
{"Strand": "GCUGACAUGGUCUUUCAAGAUUCUUAGUAGGUCUCUCAGAAGCCAGUUCAUCUGGCCUUAACUGAAUGGAUUCCCUAUUUAACCAGAAACUGUUGUCCUCCUGCUAAACA", "RBNS enrichment (R)": 0.253}
{"Strand": "CCUACCCUGGCUCUGCCAUCAGCCUUGAAGGGCCUCGAUGAAGCCUUCUCUGGAACCACUCCAGCCCAGCUCCACCUCAGCCUUGGCCUUCACGCUGUGGAAGCAGCCAA", "RBNS enrichment (R)": 0.329}
{"Strand": "GUGAGAUACUGUAAAUUUGAGCUUUGUCAAACAUAUGGUAAGUUAAAGGGGAAGACCAGUGCUUCUUAAGACAGUGAGGGGUCUUCCUCCUGUGGCCAGGCGCUCCUGCA", "RBNS enrichment (R)": 3.31}
{"Strand": "CAUCCCUCAGUUGGUCCAUUGUAAUGAUGAUCGUCCUCAUCUGAGUGACAGUUACUGCCCAGGGUCCAGCCAAGGACAGGUACAGGAAGGCAGAGAUCACUAUAGAGCCA", "RBNS enrichment (R)": 0.311}
{"data": "Study 2", "target": "Histone acetyltransferase KAT6A, winged helix 1, GST fusion (KAT6A, Homo sapiens, UniProt Q92794, residues 1-85)", "method": "protein binding microarray", "molecule type": "double-stranded DNA, one strand shown", "sample": "in vitro", "concentration": "not given", "notes": "8-mer, flanks averaged, mean of 2 arrays, mostly near background", "reference": "not given", "reading": "higher = stronger binding", "Residues (chain)": "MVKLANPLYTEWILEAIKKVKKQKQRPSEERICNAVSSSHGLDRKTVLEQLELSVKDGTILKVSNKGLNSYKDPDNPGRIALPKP"}
{"Strand": "ACAAATTC", "E-score": -0.138}
{"Strand": "ACAGCCCC", "E-score": 0.118}
{"Strand": "GACCGACA", "E-score": 0.176}
{"Strand": "CCTAACGA", "E-score": -0.0116}
{"Strand": "AGCCGGAT", "E-score": 0.0992}
{"Strand": "AGGCGATG", "E-score": -0.0276}
{"data": "Study 3", "target": "PABPC1L2, full length, GST fusion (mouse, UniProt A0ABA7IW68)", "method": "RNAcompete", "molecule type": "RNA", "sample": "in vitro", "concentration": "20 nM", "notes": "7-mer, probes averaged, single round", "reference": "mean of 7-mers", "reading": "higher = stronger binding", "Target sequence (chain)": "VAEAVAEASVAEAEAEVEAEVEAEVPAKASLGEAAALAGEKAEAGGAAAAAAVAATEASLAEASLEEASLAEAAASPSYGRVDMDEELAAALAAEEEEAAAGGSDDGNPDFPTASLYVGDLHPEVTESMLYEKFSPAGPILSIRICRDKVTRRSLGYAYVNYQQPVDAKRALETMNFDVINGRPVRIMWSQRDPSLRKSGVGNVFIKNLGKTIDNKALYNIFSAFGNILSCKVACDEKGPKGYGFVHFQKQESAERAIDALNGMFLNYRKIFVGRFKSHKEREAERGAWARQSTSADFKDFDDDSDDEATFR"}
{"Strand": "UAGCUGA", "7-mer Z-score": -0.0192}
{"Strand": "AUGUCCC", "7-mer Z-score": -0.258}
{"Strand": "GGUUUCA", "7-mer Z-score": -0.311}
{"Strand": "AUUGACU", "7-mer Z-score": -0.121}
{"Strand": "CUCUCUA", "7-mer Z-score": -0.296}
{"Strand": "UAUUUAG", "7-mer Z-score": 0.216}
{"Strand": "CUGAUGA", "7-mer Z-score": -0.222}
{"Strand": "AGUAAUA", "7-mer Z-score": -0.0301}
{"Strand": "AAUCGCU", "7-mer Z-score": -0.0301}
{"Strand": "GGUGAAA", "7-mer Z-score": 0.47}
{"data": "Further values, each from its own experiment"}
{"Molecule": "PhoQ, residues 284 288 289 292 302 303 TNSAEL", "target": "PhoP, residues 12 14 15 18 19 NQGLL (Escherichia coli, UniProt P23836)", "assay": "Sort-seq, measured: YFP reporter", "system": "E. coli", "conditions": "PhoQ-PhoP variant library, added: 10 µM Mg2+", "how to read": "reference: high Mg2+ state, higher = stronger signaling", "measurement": "fold induction", "value": 6.92}
{"note": "For quick reference, copied from above (study 3):"}
{"Strand": "AGUAAUA", "7-mer Z-score": -0.0301}
{"Strand": "AUGUCCC", "7-mer Z-score": -0.258}
